# Assay results pooled from the literature.
# Parts stem from different laboratories: compare values within a part only.
# Sequence of UniProt Q9UKI8 (whole entry, looked up): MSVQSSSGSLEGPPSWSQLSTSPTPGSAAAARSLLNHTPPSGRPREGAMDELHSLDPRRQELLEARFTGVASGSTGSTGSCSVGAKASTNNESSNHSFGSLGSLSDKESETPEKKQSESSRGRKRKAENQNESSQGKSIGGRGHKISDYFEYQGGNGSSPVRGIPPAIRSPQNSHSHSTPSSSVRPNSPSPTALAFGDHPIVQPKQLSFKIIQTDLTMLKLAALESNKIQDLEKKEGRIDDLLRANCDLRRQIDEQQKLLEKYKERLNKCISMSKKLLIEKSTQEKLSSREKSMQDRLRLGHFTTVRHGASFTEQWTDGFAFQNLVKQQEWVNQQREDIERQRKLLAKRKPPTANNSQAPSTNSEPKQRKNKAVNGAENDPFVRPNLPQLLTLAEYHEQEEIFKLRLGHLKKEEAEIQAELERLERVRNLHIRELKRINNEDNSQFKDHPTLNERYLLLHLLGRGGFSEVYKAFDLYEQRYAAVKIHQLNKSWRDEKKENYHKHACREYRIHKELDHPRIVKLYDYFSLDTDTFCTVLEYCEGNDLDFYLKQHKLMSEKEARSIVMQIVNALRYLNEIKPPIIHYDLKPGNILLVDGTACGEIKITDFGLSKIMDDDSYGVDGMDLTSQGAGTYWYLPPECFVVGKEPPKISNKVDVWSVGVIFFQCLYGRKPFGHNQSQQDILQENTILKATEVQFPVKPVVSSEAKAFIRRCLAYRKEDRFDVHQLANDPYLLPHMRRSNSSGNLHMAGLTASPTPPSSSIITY
# Sequence of UniProt Q9UF33 (whole entry, looked up): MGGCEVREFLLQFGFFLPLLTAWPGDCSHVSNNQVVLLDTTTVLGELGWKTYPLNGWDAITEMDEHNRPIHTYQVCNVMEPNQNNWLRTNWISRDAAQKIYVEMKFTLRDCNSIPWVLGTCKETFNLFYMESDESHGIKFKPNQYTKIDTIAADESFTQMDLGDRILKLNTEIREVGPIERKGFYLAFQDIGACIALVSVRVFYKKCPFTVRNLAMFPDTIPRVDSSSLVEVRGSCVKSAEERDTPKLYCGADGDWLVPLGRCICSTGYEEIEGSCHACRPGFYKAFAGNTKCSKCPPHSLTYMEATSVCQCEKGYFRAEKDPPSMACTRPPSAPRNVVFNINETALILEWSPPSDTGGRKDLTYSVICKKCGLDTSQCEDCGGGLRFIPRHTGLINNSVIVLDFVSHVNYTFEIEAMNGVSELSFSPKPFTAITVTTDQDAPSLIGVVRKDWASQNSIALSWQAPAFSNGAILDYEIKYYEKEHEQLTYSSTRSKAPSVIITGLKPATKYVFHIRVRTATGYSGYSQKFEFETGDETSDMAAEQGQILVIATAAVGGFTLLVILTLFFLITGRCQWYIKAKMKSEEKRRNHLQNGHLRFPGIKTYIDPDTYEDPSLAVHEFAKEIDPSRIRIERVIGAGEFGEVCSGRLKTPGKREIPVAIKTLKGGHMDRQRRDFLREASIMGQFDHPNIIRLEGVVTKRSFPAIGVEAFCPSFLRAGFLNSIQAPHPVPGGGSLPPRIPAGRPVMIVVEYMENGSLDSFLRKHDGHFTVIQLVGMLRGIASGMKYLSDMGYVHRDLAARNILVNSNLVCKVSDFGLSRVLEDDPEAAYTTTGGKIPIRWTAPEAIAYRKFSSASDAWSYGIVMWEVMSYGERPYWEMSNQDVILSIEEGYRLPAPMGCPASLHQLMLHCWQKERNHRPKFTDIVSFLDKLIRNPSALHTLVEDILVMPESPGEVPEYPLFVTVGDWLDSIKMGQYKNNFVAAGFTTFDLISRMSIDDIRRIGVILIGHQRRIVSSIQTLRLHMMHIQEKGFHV
# Sequence of UniProt P24723 (whole entry, looked up): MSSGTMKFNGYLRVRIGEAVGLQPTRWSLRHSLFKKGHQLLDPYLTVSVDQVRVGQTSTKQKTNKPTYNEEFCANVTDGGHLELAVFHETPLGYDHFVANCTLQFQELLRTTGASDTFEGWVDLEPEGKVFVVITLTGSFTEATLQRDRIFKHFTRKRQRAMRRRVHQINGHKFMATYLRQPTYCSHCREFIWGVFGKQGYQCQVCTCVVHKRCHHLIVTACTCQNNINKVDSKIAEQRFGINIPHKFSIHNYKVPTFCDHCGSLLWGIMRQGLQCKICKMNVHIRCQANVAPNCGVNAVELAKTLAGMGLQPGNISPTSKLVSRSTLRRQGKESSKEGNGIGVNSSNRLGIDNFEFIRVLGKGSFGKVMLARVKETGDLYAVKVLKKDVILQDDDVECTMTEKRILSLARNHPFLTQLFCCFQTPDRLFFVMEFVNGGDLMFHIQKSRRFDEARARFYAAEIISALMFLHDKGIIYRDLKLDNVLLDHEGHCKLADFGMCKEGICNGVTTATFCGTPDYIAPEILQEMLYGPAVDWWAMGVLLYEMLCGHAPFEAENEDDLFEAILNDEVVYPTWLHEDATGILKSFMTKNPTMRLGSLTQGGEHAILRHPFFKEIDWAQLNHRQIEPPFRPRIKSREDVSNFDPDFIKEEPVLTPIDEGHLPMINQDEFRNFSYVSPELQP
# Sequence of UniProt P22607 (whole entry, unmodified, looked up): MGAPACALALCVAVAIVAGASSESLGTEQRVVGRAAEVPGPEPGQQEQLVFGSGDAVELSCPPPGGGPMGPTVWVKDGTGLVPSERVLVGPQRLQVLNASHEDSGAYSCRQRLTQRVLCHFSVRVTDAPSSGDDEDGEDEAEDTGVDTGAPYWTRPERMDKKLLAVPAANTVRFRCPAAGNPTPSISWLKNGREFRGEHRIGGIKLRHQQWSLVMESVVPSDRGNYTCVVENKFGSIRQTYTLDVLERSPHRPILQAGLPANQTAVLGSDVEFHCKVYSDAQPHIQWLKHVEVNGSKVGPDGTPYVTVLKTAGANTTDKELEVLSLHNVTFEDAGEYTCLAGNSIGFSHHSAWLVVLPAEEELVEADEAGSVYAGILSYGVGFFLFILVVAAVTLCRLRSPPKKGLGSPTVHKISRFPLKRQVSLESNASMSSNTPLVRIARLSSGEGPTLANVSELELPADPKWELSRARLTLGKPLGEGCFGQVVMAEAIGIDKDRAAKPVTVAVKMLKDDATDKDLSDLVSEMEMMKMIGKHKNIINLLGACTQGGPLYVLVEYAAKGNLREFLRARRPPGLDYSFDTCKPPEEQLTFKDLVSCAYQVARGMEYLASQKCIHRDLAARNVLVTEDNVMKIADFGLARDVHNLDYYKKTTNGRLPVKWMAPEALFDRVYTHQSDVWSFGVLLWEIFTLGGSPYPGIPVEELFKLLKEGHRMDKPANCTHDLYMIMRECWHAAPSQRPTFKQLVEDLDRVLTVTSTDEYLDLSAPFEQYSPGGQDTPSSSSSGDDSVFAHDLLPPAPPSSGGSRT

# Block 1
# Target: Insulin receptor-related protein (INSRR, Homo sapiens, UniProt P14616)
# Sequence of UniProt P14616 (whole entry, looked up): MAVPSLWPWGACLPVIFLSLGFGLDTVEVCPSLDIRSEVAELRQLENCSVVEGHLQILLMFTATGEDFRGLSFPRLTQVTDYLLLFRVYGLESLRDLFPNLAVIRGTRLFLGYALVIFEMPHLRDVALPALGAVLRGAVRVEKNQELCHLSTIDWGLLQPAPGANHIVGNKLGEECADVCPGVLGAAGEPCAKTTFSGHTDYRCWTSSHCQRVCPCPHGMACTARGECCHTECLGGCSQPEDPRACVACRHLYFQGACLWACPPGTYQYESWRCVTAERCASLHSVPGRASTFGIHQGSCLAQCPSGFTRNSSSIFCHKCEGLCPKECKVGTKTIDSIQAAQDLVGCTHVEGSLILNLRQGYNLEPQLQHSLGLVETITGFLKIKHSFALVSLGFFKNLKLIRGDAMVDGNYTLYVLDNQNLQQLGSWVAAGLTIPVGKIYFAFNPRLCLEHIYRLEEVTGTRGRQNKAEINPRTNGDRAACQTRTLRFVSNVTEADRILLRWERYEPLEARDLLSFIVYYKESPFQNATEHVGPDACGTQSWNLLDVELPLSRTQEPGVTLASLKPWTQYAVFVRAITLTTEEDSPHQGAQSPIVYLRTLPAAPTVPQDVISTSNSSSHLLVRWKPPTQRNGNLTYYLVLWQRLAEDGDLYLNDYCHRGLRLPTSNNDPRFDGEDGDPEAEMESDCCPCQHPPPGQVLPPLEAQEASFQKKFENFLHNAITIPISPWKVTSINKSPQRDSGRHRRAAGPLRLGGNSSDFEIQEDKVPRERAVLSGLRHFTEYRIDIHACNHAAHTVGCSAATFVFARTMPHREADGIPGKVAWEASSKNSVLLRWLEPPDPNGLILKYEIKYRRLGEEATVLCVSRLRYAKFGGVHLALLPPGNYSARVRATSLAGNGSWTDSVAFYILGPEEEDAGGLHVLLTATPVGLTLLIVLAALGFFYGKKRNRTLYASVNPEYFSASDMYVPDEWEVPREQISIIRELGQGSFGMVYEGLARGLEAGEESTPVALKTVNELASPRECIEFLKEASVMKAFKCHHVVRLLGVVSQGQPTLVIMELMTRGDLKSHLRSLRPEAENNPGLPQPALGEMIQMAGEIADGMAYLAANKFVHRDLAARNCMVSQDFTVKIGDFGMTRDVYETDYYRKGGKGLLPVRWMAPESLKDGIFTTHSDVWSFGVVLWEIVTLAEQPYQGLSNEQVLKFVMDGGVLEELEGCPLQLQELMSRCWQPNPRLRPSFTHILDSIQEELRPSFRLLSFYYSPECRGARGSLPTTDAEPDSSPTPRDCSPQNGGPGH
# Effect on: enzyme activity
# Mode: inhibitor
# Concentration: 0.5 µM
# Reference: control
Structure (SMILES),remaining activity [%]
COc1ccc(OC)c2c(=S)c3ccccc3[nH]c12,88.7
CCOC(=O)c1c(C)[nH]c(/C=C2\C(=O)Nc3ccccc32)c1C,93.8
CC(C)[C@H](CO)Nc1nc(Nc2cc(N)cc(Cl)c2)c2ncn(C(C)C)c2n1,70.8
NCCNc1ncc(C(N)=O)c(Nc2cccc(C(F)(F)F)c2)n1,86.4
O=c1c2ccccc2[nH]c(=S)n1CCN1CCC(=C(c2ccc(F)cc2)c2ccc(F)cc2)CC1,98.3
O=C1NC(=O)C(c2cn(CCCn3ccnc3)c3ccccc23)=C1Nc1ccccc1,101
Cc1nc(-c2ccccc2)c(-c2ccncc2)o1,101
Cn1sc(=O)n(Cc2ccccc2)c1=O,99.3
C#Cc1cccc(Nc2ncnc3cc(OCCOC)c(OCCOC)cc23)c1,110
OCC(O)CCON=C1C(c2c(O)[nH]c3ccccc23)=Nc2ccccc21 (stereo not drawn),2.77
O=C(O)c1ccc2c3c1cccc3c(=O)n1c3ccccc3nc21,101

# Block 2
# Cell line: yeast with cyclin A1-Cln2 chimera
# Effect on: cell growth
# Mode: binder
# Method: competitive growth deep sequencing
# Form: peptide
# Concentration: concentration not given
# Notes: peptide tiling library
# Reading: direction not given
Sequence,growth enrichment score
EPRNLLSLFEDTLDPT,1.09
PLRKAKRARLCSSSSS,0.317
LRRQLSFSED,-0.109
RRVLCFDS,-0.351
SCCKRKLVVGNGPEGP,-0.165
PARRRLRLSVDEVSSP,-0.101
NARRSLNFGGSTGT,-0.213
ALTMEALEDPSPELME,1.48

# Block 3
# Target: TAR DNA-binding protein 43, full length, His tag (TARDBP, Homo sapiens, UniProt Q13148, residues 1-414)
# Method: RNA Bind-n-Seq
# Form: RNA
# Medium: in vitro
# Concentration: 20 nM
# Notes: 6-mer, flanks averaged, single round
# With: 150 mM LiCl
# Reference: input library
# Reading: higher = stronger binding
Oligonucleotide,6-mer enrichment (R)
CCCGCA,1
UCACCG,0.853
AAGGAU,0.871
CGUGCC,0.981
GUAGGU,1.13
AGACGU,0.897
GCGCAA,0.97
GCAGCG,1.04

# Block 4
# Structure (SMILES): Cn1nc(C(F)(F)F)cc1-c1cnc(N2CCc3cc(S(=O)(=O)Nc4c(F)cc(Cl)cc4F)cc(N4CCCC4=O)c32)nc1
# Effect on: cell-free assay
# Method: competition with immobilised ligand
# Concentration: 1 µM
target,remaining binding [%]
"PRKAA2 (Homo sapiens, UniProt P54646)",97
"FGFR3 (Homo sapiens, UniProt P22607, G697C)",100
"EPHA3 (Homo sapiens, UniProt P29320)",94
"EPHA6 (Homo sapiens, UniProt Q9UF33)",89
"PRKCH (Homo sapiens, UniProt P24723)",90
"TLK1 (Homo sapiens, UniProt Q9UKI8)",78

# For quick reference, copied from above (block 2):
Sequence,growth enrichment score
LRRQLSFSED,-0.109
RRVLCFDS,-0.351
